{"data": "Measurements gathered from unrelated publications", "note": "Parts stem from different laboratories: compare values within a part only. Values joined by “and” are separate records of one study, mostly repeats; a detail may differ.", "chain of UniProt Q96NX5 (whole entry, looked up)": "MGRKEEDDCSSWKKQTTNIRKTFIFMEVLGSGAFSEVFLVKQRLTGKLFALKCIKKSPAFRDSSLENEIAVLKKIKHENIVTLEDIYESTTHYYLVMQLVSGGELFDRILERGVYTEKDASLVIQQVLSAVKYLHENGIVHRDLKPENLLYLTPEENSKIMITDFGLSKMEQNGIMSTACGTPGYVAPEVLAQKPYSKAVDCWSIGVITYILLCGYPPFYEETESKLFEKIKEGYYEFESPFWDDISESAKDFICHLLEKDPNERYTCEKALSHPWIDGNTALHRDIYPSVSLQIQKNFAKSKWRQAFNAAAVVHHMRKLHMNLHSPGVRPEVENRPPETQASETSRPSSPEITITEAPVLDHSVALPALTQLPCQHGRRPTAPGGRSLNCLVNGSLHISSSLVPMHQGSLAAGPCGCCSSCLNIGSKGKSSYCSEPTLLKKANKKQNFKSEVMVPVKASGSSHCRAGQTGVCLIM", "chain of UniProt Q00534 (whole entry, looked up)": "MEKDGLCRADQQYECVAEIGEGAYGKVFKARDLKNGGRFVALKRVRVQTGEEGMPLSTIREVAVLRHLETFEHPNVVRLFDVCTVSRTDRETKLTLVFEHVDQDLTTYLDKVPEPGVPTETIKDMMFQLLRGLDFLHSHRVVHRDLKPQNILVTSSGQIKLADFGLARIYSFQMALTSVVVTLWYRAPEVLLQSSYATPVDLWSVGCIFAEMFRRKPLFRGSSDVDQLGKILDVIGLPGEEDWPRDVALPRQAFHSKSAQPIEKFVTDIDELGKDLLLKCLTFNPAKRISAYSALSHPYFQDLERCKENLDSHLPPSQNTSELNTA", "chain of UniProt Q9H3Y6 (whole entry, looked up)": "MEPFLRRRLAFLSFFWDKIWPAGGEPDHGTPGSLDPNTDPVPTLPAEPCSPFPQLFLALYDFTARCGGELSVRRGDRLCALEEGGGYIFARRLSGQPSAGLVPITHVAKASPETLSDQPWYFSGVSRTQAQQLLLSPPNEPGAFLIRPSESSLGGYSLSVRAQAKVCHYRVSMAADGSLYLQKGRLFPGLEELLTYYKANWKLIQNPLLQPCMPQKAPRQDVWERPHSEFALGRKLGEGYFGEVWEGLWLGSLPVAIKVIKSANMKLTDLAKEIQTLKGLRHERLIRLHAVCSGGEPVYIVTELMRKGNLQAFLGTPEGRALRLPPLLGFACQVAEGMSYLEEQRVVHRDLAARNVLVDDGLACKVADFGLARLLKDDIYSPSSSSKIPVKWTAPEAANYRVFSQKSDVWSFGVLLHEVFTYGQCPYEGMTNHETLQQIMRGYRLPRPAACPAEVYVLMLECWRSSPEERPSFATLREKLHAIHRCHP", "chain of UniProt P29376 (whole entry, looked up)": "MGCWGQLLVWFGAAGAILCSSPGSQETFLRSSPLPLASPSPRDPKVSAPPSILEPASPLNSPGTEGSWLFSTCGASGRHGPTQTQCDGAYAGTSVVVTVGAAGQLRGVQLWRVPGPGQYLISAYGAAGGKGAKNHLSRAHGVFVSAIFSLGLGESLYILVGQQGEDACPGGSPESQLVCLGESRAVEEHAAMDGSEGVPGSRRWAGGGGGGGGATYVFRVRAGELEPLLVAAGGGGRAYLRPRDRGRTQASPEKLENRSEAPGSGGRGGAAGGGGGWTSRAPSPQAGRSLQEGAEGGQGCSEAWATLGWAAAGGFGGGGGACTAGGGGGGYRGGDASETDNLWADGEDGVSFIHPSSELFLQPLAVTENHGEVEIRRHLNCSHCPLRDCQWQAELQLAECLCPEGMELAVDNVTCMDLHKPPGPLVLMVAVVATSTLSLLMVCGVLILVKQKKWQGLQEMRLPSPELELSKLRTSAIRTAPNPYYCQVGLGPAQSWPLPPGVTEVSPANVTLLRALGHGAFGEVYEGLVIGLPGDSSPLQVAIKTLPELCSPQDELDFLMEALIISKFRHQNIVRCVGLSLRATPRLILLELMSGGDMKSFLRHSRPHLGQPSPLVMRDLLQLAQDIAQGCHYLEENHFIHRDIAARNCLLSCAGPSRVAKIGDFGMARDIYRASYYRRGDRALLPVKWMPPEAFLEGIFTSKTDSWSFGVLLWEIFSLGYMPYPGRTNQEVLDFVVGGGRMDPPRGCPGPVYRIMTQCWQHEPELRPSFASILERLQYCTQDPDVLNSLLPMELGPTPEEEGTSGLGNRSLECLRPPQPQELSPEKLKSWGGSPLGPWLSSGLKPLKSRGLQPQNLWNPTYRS"}
{"data": "Block 1", "cell line": "HEK-293T", "organism": "VSV pseudotyped with VSV-G", "tested at": "10 µM", "time": "16 h"}
{"SMILES": "CC(C(=O)O)c1cccc(C(=O)c2ccccc2)c1 (stereo not drawn)", "pseudovirus infection": "90.9%"}
{"SMILES": "CNCCC(Oc1ccc(C(F)(F)F)cc1)c1ccccc1 (stereo not drawn)", "pseudovirus infection": "124%"}
{"SMILES": "NCCc1ccc(O)c(O)c1", "pseudovirus infection": "104%"}
{"SMILES": "Cc1cccc([C@H](C)c2cnc[nH]2)c1C", "pseudovirus infection": "118%"}
{"SMILES": "CCN(CC)CC#CCOC(=O)C(O)(c1ccccc1)C1CCCCC1 (stereo not drawn)", "pseudovirus infection": "103%"}
{"SMILES": "CCCc1cc(=O)[nH]c(=S)[nH]1", "pseudovirus infection": "103%"}
{"SMILES": "Clc1ccc(COC(Cn2ccnc2)c2ccc(Cl)cc2Cl)cc1 (stereo not drawn)", "pseudovirus infection": "127%"}
{"SMILES": "O=C1CCc2ccc(OCCCCN3CCN(c4cccc(Cl)c4Cl)CC3)cc2N1", "pseudovirus infection": "93.8%"}
{"SMILES": "OCCOCCN1CCN(C2=Nc3ccccc3Sc3ccccc32)CC1", "pseudovirus infection": "117%"}
{"SMILES": "COc1ccc(CCN(C)CCCC(C#N)(c2ccc(OC)c(OC)c2)C(C)C)cc1OC (stereo not drawn)", "pseudovirus infection": "112%"}
{"SMILES": "O=C1OCCN1/N=C/c1ccc([N+](=O)[O-])o1", "pseudovirus infection": "92.3%"}
{"SMILES": "CC(C)(C(=O)O)c1ccc(C(O)CCCN2CCC(C(O)(c3ccccc3)c3ccccc3)CC2)cc1 (stereo not drawn)", "pseudovirus infection": "94.6%"}
{"SMILES": "CCCCS(=O)(=O)N[C@@H](Cc1ccc(OCCCCC2CCNCC2)cc1)C(=O)O", "pseudovirus infection": "96.2%"}
{"SMILES": "CN[C@H](CC(C)C)C(=O)N[C@H]1C(=O)N[C@@H](CC(N)=O)C(=O)N[C@H]2C(=O)N[C@H]3C(=O)N[C@H](C(=O)N[C@H](C(=O)O)c4cc(O)cc(O)c4-c4cc3ccc4O)[C@H](O)c3ccc(c(Cl)c3)Oc3cc2cc(c3O[C@@H]2O[C@H](CO)[C@@H](O)[C@H](O)[C@H]2O[C@H]2C[C@](C)(N)[C@H](O)[C@H](C)O2)Oc2ccc(cc2Cl)[C@H]1O", "pseudovirus infection": "95.4%"}
{"SMILES": "c1ccc([C@H]2CN3CCSC3=N2)cc1", "pseudovirus infection": "98.6%"}
{"SMILES": "Clc1cccc(Cl)c1N=C1NCCN1", "pseudovirus infection": "104%"}
{"SMILES": "NCCc1c[nH]cn1", "pseudovirus infection": "120%"}
{"SMILES": "CCOC(=O)N1CCC(=C2c3ccc(Cl)cc3CCc3cccnc32)CC1", "pseudovirus infection": "114%"}
{"SMILES": "CN1CCC(=C2c3ccccc3C=Cc3ccccc32)CC1", "pseudovirus infection": "129%"}
{"data": "Block 2", "SMILES": "CC(C)(C)c1cc(C=C(C#N)C#N)cc(Br)c1O", "observed": "enzyme activity", "mode": "inhibitor", "tested at": "0.5 µM"}
{"target": "Leukocyte tyrosine kinase receptor (LTK, Homo sapiens, UniProt P29376)", "technique": "radiometric", "remaining activity [%]": 96.5}
{"target": "Tyrosine-protein kinase Srms (SRMS, Homo sapiens, UniProt Q9H3Y6)", "reference": "control", "remaining activity [%]": 98.4}
{"target": "Calcium/calmodulin-dependent protein kinase type 1G (CAMK1G, Homo sapiens, UniProt Q96NX5)", "remaining activity [%]": 104}
{"target": "Cyclin-dependent kinase 6, with cyclin D3 (CDK6, Homo sapiens, UniProt Q00534)", "remaining activity [%]": 89.3}
{"data": "Block 3", "cell line": "HEK-293T-ACE2-TMPRSS2", "technique": "cell count", "tested at": "10 µM"}
{"Compound": "C=CCc1c(O)c(CC)cc2c(C)cc(=O)oc12", "viability [%]": 65}
{"Compound": "CC(=O)Nc1ccc(Cl)c(C(=O)NCCN2CCCOC2=O)c1", "viability [%]": 66}
{"Compound": "CSc1nnc(NC(=O)c2nc(S(=O)(=O)Cc3ccccc3)ncc2Cl)s1", "viability [%]": 74}
{"Compound": "CN(C(=O)CSC1=NCCS1)C1CCCCC1", "viability [%]": 79}
{"Compound": "O=C(CC1=CCCCC1)N1C[C@@H](CO)[C@H](c2nc(C3CC3)no2)C1", "viability [%]": 92}
{"Compound": "COC(=O)c1ccc(CN2CCN(CC3CCCCC3)C(CCO)C2)cc1 (stereo not drawn)", "viability [%]": 104}
{"Compound": "CN1CCN(S(=O)(=O)c2ccc(N3Cc4cc5c(cc4C4(CCCC4)C3)OCCO5)nc2)CC1", "viability [%]": 68}
{"Compound": "Cc1nc(Sc2nnnn2C2CC2)c2c(C)c(C)sc2n1", "viability [%]": 103}
{"Compound": "CCC(CC)C(=O)N1CCN(c2nc3ccccc3nc2C(F)(F)F)CC1", "viability [%]": 84}
{"Compound": "COc1ccc(S(=O)(=O)CCc2noc(C(=O)N3CCC4(CC3)OCCO4)n2)cc1", "viability [%]": 109}
{"Compound": "COc1ccccc1Oc1ncccc1CNC(=O)c1cc(C)oc1C", "viability [%]": 110}
{"Compound": "COc1cccc2c1OCC(C(=O)NCCSc1nnnn1C)C2 (stereo not drawn)", "viability [%]": 86}
{"Compound": "CC1Oc2ccc(Nc3nccc(C(F)(F)F)n3)cc2NC1=O (stereo not drawn)", "viability [%]": 70}
{"Compound": "CCc1cc2c(N3CCN(c4cccc(C)c4)C(C)C3)ncnc2s1 (stereo not drawn)", "viability [%]": 71}
{"Compound": "Cn1cnnc1S/C=C/C(=O)c1ccc(F)cc1", "viability [%]": 77}
{"Compound": "CC(C)(C)c1ccc(O)c(CN2CCC(CN)C2)c1 (stereo not drawn)", "viability [%]": 76}
{"Compound": "CC(C)CC(NC(=O)c1cn2ccsc2n1)c1nnc2n1CCNCC2 (stereo not drawn)", "viability [%]": 67}
{"Compound": "COC[C@@H]1CN(S(=O)(=O)c2ccc(C#N)cc2)C[C@H]1c1ccncc1", "viability [%]": 89}
{"data": "Block 4", "Compound": "CNC(=N)NCCC[C@H](NC(=O)[C@H](CC(C)C)NC(=O)NNC(=O)[C@H](Cc1ccccc1)NC(=O)[C@H](CO)NC(=O)[C@H](CC(N)=O)NC(=O)[C@@H](Cc1ccncc1)NC(=O)[C@H](N)Cc1ccc(O)cc1)C(=O)N[C@@H](Cc1ccccc1)C(N)=O", "tested at": "0.1 µM", "reference": "DMSO"}
{"cell line": "sample I colorectal tumour organoid", "viability": "115%"}
{"cell line": "sample C colorectal tumour organoid", "setting": "replicate 2", "viability": "109%"}
{"cell line": "sample I colorectal tumour organoid", "setting": "replicate 2", "viability": "129%"}
{"cell line": "sample B colorectal tumour organoid", "setting": "replicate 1", "viability": "126%"}
{"cell line": "colorectal tumour organoids", "viability": "103%"}
{"cell line": "normal-adjacent epithelium patient-derived organoids sample F", "technique": "CellTiter-Glo", "viability": "106% and 112%"}
{"cell line": "sample I colorectal tumour organoid", "setting": "replicate 1", "viability": "102%"}
{"cell line": "sample C colorectal tumour organoid", "viability": "118%"}
{"cell line": "sample C colorectal tumour organoid", "setting": "replicate 1", "viability": "127%"}
{"cell line": "sample B colorectal tumour organoid", "setting": "replicate 2", "viability": "105%"}
{"note": "For quick reference, copied from above (block 3):"}
{"Compound": "Cc1nc(Sc2nnnn2C2CC2)c2c(C)c(C)sc2n1", "viability [%]": 103}
{"Compound": "CCC(CC)C(=O)N1CCN(c2nc3ccccc3nc2C(F)(F)F)CC1", "viability [%]": 84}
{"Compound": "COc1ccc(S(=O)(=O)CCc2noc(C(=O)N3CCC4(CC3)OCCO4)n2)cc1", "viability [%]": 109}
